Experimental data pooled from the literature.
Numbered parts are unrelated; each lists some results of a single study.

Sample 1 — method: universal PBM; molecule type: double-stranded DNA, one strand shown; sample: in vitro; concentration: 600 nM; reading: higher = stronger binding
Target: Sal-like protein 4, full length isoform A (SALL4, Homo sapiens, UniProt Q9UJQ4, residues 1-1053)
Chain of UniProt Q9UJQ4 (whole entry, looked up): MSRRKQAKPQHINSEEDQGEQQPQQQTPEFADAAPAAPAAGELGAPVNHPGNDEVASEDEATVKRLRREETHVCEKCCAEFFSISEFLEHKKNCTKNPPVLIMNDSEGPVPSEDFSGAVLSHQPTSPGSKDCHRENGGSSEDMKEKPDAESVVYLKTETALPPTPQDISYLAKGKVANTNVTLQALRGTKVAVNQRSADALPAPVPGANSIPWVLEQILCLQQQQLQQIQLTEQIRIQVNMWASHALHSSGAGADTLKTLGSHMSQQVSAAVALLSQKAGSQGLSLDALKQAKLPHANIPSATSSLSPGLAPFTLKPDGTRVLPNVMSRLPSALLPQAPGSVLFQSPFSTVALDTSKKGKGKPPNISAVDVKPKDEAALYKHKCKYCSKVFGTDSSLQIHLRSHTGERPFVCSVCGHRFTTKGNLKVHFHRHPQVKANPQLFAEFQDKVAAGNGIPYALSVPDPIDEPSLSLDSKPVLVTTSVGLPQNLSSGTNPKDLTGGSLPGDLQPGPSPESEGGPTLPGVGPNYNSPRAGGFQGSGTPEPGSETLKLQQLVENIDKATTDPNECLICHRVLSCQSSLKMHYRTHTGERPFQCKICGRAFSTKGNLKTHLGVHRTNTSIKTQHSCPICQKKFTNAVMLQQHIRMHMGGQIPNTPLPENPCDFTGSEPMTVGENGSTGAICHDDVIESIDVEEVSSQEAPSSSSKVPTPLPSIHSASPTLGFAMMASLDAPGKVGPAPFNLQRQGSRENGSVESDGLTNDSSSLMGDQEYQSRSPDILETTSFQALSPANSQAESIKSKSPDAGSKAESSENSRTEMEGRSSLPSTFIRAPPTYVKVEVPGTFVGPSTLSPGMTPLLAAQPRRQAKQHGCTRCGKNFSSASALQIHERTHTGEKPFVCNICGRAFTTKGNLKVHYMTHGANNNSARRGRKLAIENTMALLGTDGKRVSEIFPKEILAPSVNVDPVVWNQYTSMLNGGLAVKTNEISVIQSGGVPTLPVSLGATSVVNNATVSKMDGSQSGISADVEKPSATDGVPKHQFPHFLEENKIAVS
Setting: 8-mer, flanks averaged, mean of replicates
| Strand | E-score |
| --- | --- |
| CTCAGGAC | -0.112 |
| ATTCTGAC | 0.0474 |
| ATGCACAG | -0.0768 |
| GTGTGAGA | 0.0442 |
| CGAAAGCC | -0.227 |
| GGGGTTCA | -0.237 |
| AACTATGC | 0.215 |
| ATTTGGCG | 0.136 |
| AAAGCTAC | -0.05 |
| GAGACAGA | 0.0454 |
| ACCGGAGT | -0.277 |
| GCGGTATA | 0.0746 |
| AACCGCAT | 0.0322 |
| TCCGCCCA | -0.247 |
| ATTGTATG | 0.251 |
| ACAAGATA | 0.183 |
| ACGCTAGC | -0.246 |
| GGCTACAC | -0.0126 |
| TATGCTGA | 0.188 |
| AGCTGTAC | -0.196 |
| CCAAGCGC | -0.172 |
| AACCGGCG | -0.321 |

Sample 2 — method: RNA Bind-n-Seq; molecule type: RNA; sample: in vitro; concentration: 365 nM; reference: no-protein control; reading: higher = stronger binding
Target: RNA binding protein fox-1 homolog 2, RRM domain, GST-SBP tag (RBFOX2, Homo sapiens, UniProt O43251-10, residues 100-194)
Setting: natural RNA segment, single round, ends assumed
All sequences stand within: GGGAGUUCUACAGUCCGACGAUC … UGGAAUUCUCGGGUGCCAA
Target sequence (chain): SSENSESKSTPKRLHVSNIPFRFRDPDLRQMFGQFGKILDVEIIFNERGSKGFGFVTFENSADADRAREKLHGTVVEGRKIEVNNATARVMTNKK
| Strand | RBNS enrichment (R) |
| --- | --- |
| GGUAGGCCUAGCAGGUAGAGCUCAGGCCAGGGGUCUUUCCUCUGAGUCGGGAACAUGUCCAUUCUACCUCAGGGUUGGGUGGUGCGAGGCCAAGCCAGGCCUGGCUGUGU | 0.255 |
| CAUUCCCAGGAGGAAAAGGUGGCAGAGAGGGCAGUACUGAGUAUGUCAGAAGAGCCCUCCUGGUUUUUUAGCGAUUUGAACCCACUAGACAAUGUGUGCACAUAGGGAAU | 0.487 |
| GAUUUAUGCUGGUGGAGGUGUUGUUUGUCCUAUGGAAGAUAUUUUCUACUGAGCUGGGCUACUGUACACAAUGGACAGUGUGCAUUUCUGUACAGGUUACGGUUCUAUGC | 0.587 |
| UACUUACAACUCUGGUAAGCCUAGCUUCUCCGCCUCAGCCCUUCUGCUUCUGGAAGGGCUAUCCUGGGGGUGAACUUGAAACUCUCAUCAGGCUUCUGCAAAAGCUCUUC | 0.218 |
| AGCAUCCUUUGGAGCAGGUCAACCUGAGGCUCCUUUGGCUUACAUCUAAGUUGUCCAGGUGCUCAGCUCCUGUGUGCCUGGAUGAUGAGAGGGCUCUAGGGCUCUUUCAG | 0.165 |
| GGAAAAACAAAGUUGCCUGAUUCCGCGCAGGUGCACAGGCCCCGGAUGUACACCCGGAAAGGGGAGUGUGGCUGUAGAAUCAUCCAUCCGUCUACAGCUAAAACAAUUUG | 0.341 |
| GCACUCAAAACCAACAAAGAGAAUGAGCAAUCAUCUUAAAGAUGGAACCUCUUAAAGGACAACUUUGAUUUCCUUCUUCGUGUGAAGAUGCUGGAUAGUACCCAAAUCAC | 0.363 |
| AUUAUCACGUCUGACAAAUGUGUAUGUGUGGUUUCAGUUCUGUGUACAUUUUAAAGGAUAAUGGUGAACAUUUUAAUGGGUUUCCCUUGCCCUUUCCAUAUUUAACCUAU | 0.481 |
| GAGGGAAACGCCCCCAGACUCCUGCUGCCACUGUUUUGUGAACUAAUGAACAUGAGCAGAAGCCUAAGUUGGGACAGCUCAGAACCAAGCAAGAGGGGGCCGUUUUAAUG | 0.431 |
| CACAGCCCCGUGAACCCUGAGGAGUGGAGUCAUACGCGAAGGGUGUGUGGCCAGGCUGCAGAGCUGCGUGCCGUUUGUGUCCGAGCAUCACGUGUGGCUCCAGCCCUUGU | 0.353 |
| UUUUCCUUUAUGAAGAAAAAAUAAAAUAGUCACAUUUUAAUACUACUCUAGUUAGGACAGACUUGUGCUUUUAUCCUGACUAAAAAGUUAAAUAUUUAAGUCACAUACAU | 0.453 |
| UAGCUAAUAAUGGAUUUAAGUGUUUGGAUAAUUGUAGAUGCAUUUACUUUGAUAAAGCGUGUGCUUAAAGUGGUAUCACCAGUGAUUUCUAACAUGAUUUUAAAAAAAUA | 0.846 |

Sample 3 — method: protein-binding microarray; molecule type: double-stranded DNA, one strand shown; sample: in vitro; concentration: 940 nM top; setting: 60-bp whole probe; added: salmon DNA 0.4 mg/ml; reference: random background probes; reading: higher = stronger binding; all sequences stand within: GCCTAGCAC … GTCTTGATTCGCTTGACGCTGCTG
Target: Interferon regulatory factor 5, full length, phosphomimetic (IRF5, Homo sapiens, UniProt Q13568-2, residues 1-514, S451D/S453D/S456D/S462D)
| Strand | fitted relative affinity |
| --- | --- |
| TCAGCATTTTTTTTATCACTGTGCTAG | 1.05 z-score |
| TCATCTTTTCATTTTCTACTGTGCTAG | 1.88 z-score |
| GACAGTATCGGACTGGGGACGTGCTAG | 2.77 z-score |
| ATCGATTTCTTCCCTGTGAAAGTGCTA | 0.523 z-score |
| GACGATCTCAGTATCGAGAGGTGCTAG | 1.75 z-score |
| TTAGATCTCAGTATTGATTAGTGCTAG | 0.411 z-score |
| CTCACTCTAATCTCACTCTGTGTGCTA | 1.33 z-score |
| TTAGTACTGGACTATCGGTTAGTGCTA | -0.146 z-score |
| TTAGGTTTCGGGACTGGATTAGTGCTA | 7.85 z-score |
| TCAAATTTTAGTAACACACTGTGCTAG | -0.144 z-score |
| GCGGTTGGATCACAAGGTCAGTGCTAG | -0.723 z-score |
| TTAGGCATCGGGACTGGGTTAGTGCTA | -0.584 z-score |
| TTGGGACTGGGGTTTCGGTTAGTGCTA | 5.29 z-score |
| CTTCACATATAATTTTGTCATGTGCTA | 0.303 z-score |
| TTAGGACTGGACTTTCAGTTAGTGCTA | 0.0933 z-score |
| ATAGGTCTCCTTTTCCTTTAGTGCTAG | 0.661 z-score |
| TTAGGTCTCGCACTGGGTTAGTGCTAG | 0.401 z-score |
| GACGCTATCGACTTTCGGGACGTGCTA | 0.926 z-score |
| TCTATAATGGATATATATCAGTGCTAG | 0.0283 z-score |
| GACGATTTCGGGTATCGGGACGTGCTA | 1.44 z-score |
| TTAGGTCTCGGTATCGCTTAGTGCTAG | 5.69 z-score |
| TTAGGAGTGGACACTGGGTTAGTGCTA | -0.319 z-score |
| TTAGAACTTGGGACTGGATTAGTGCTA | -0.582 z-score |
| ATGAGCCTCTGTTTTGAGCAGTGCTAG | -0.498 z-score |
| TCCTGTGACGTTAAGGTCTCGTGCTAG | -0.117 z-score |

Sample 4 — method: RNA Bind-n-Seq; molecule type: RNA; sample: in vitro; concentration: 100 nM; reference: input RNA pool; reading: higher = stronger binding
Target: RING finger protein unkempt homolog, zinc fingers 1-6, SBP tag (UNK, Homo sapiens, UniProt Q9C0B0, residues 30-357)
Chain of UniProt Q9C0B0 (30-357, looked up): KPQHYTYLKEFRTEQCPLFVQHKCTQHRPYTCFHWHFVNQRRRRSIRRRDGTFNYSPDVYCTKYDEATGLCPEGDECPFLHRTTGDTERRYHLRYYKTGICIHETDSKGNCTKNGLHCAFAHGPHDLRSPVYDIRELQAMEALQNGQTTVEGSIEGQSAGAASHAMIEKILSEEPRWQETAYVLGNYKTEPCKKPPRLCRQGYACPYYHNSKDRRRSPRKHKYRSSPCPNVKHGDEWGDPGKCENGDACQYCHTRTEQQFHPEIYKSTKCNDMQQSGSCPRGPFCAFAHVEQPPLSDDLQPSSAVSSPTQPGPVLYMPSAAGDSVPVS
Setting: RNA with constant flanks, vertebrate orthologous sites, ends assumed
All sequences stand within: GGGAGUUCUACAGUCCGACGAUC … CAACAGAGGAUUGAGCAUCA
| Strand | bound/input enrichment [ratio] |
| --- | --- |
| CUACUGUAAUCAACUCAGGGCAGUAUUCUCGAUAUCCUUACAAUAACCUAAAUCAGGGAUUAGUUAACAAUACAGGGAUGAAUCAAAAUUUAGGCCUUACGAAUAAUAAUCCAAUAAAUC | 1.37 |
| AUUCAAACCUGUGGUACCAUGGCCUCAUGUUGAAGGAGUAGAAGUGGACUUAGAGUCUAUUAGAAGAAAAAACAAGGCCAAAAAUGAACAAGAGCACCAUGCUGGAGGAGAUUCCCAGAA | 0.299 |
| UCAGACCUAAGCCAACAGCAGUUCUAAAAUGCUAUUUAUUUGUGUCUGUAAGUUUGUACAUAGUAAUAUCAACCUCAUAUUGUUGCAGUUUUUUUUUUCCAUGAGUUUGAGUUUUGCUUU | 0.511 |
| GCAGCUGCUUUUUCAUAUGGCCUCAGUGAGGUAACAUCUCCCUGGGCAUUCAGUCGGUACCAGAGCCCUUCUUUCCUAAGAAGACCGUUCACAUUUCACAUCCUUCCUUUUACACGCCAU | 0.371 |
| CAUGACCUUGUUACUGUGAUAUUUAAAGUAUCUACAGUACUCACUUUCUCCAAAUGAUUCUAGUAAUUUGCCUAGAGAUAACUUUCUCUGACCUGUUAUUUAUCAAUUUUUCCCAGUAUU | 0.623 |
| AGGGAGUCUGGGUACGGGUGAGCAUUAACUUAUAAAGAAAUGAAAUGCUAAAAAUCCUAUUAGUACUAAGUUUAGUGGGAGAAUUUAAACCCCUUUUACAUAACUCUAAAACGAAAACCC | 0.591 |
| GGUUGAUGUUCUGAAGAACCACUUAGUAAAAGAAGGUCGAGUAGAUGAAGAAAUUGCACUUAGAAUUAUCAAUGAGGGUGCUGCCAUCCUUCGGAGAGAAAAAACCAUGAUAGAAGUAGA | 1.48 |
| AUCCUUUCACACUGUCCCCGGCCAGGGUCGAGGACCAGAUGUUUCACCAAGGACCUGCAUUUCAAACAAUUUUUUUAAAUUGUUAUACAGGAAGAGAUGUGCUGAAAACAGCAUCUCAAA | 0.206 |
| UGACCCUUCCCCUCAAAAGUAGAACUUUUUCAAAUGGUAUCACCAUCUCUUCUAAAAGUUUAGCAAUAGUAGAAGAAAAUGCUAAUGAGAUUAGGAAAUUCUGCUCAUUAUUCUGCAAAC | 0.617 |
| AUCAUGGACGCUUUUACCUACCUCAGUGAGGUAACGUCUCCCCUGACGUUUGGUUGGCACUAGGGCCCAUCACACCUAAUCUGUCUUUCCACAUUUCAUCUCUUUUUGCUCACACUCAUC | 0.915 |
| GCUCUAGUUCUUAACAACCGACACUCCCAAAAGAUUUAGAAAAAAGUUUACGACAUAAUCUAGUUUACAGAAAAAUCUUGUGCUAGAAUACUUUUUAAAAGGUAUUUUGAAUAUCAUUAA | 0.831 |

Sample 5 — method: competition protein-binding microarray; molecule type: double-stranded DNA, one strand shown; sample: in vitro; concentration: 2 µM; added: Cbf1 competitor, 0.05 µM; reading: higher = stronger binding; all sequences stand within: … GTCTTGATTCGCTTGACGCTGCTG
Target: Phosphate system positive regulatory protein PHO4, full length, GST-tagged (PHO4, Saccharomyces cerevisiae, UniProt P07270, residues 1-312)
Setting: whole 60-bp probe, lowest competitor level
Construct (chain): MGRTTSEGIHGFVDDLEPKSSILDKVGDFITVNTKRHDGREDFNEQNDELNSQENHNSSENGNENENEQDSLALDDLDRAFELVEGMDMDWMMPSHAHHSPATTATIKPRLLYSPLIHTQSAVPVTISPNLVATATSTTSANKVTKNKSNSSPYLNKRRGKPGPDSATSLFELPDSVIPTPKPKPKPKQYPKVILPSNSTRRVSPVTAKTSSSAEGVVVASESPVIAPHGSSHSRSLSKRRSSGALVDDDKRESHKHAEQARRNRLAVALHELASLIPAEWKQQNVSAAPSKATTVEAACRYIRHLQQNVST
| Strand | fluorescence intensity [a.u.] |
| --- | --- |
| AAACGGTCTTGGCATCAGGTGCAGTTGCCGTTTGTG | 4170 |
| GTCTTGTCTCATTGTCACTAGACTTTCCCCACTTCA | 3630 |
| AAAGCGGTAATTTGCTAGGTGGGTGCAGATATCTAT | 4170 |
| AAAGCGGTAATTTGTCAGGTGGGTGCAGATATCTAT | 5880 |
| GGTAATATTTTTACCACCGTGCGGACTTTCAATGGC | 8400 |
| GAGCGATGCCAGCATCACATGCAGGTTTTCAAGTAT | 8490 |
| CAAGATATAACTCATCACATGTTAAAGAACCCACAA | 9580 |
| TAATGCCCGACATTGGACGTGGGACGATAAAGATTG | 5260 |
| AGAAAGCACATTTGTCACGTCTCAGGTATGTAGTTC | 6630 |
| CCAGTGATTGCGTCCCACGCTCGTTACTGGTTCCTG | 6800 |
| TGAACTTGGACAAACCTCGTGGTGAAATTTAAAAAT | 10400 |
| TTTCCAGTTAGGTACCATGTGGCATGCTGTTTTTCC | 10200 |
| CACCCCAGGAGTCTTCACATGAGCAGGAAGAATTTG | 4940 |
| CGGGGTTAAGTTTTTCACGTGGACTGCTTGCAGCAG | 12600 |
| CGGGGTTAAGTTTGTCCTGTGGGTGGCTTGCAGCAG | 5660 |
| ATATCTCGCACTTCTCTCGTGATGGTCATTGAGTGC | 4510 |
